Measured values pooled from the literature.
Protocols differ between the studies behind these lines. Numbers after ± are the reported error.
Chain of UniProt P16257 (whole entry, looked up): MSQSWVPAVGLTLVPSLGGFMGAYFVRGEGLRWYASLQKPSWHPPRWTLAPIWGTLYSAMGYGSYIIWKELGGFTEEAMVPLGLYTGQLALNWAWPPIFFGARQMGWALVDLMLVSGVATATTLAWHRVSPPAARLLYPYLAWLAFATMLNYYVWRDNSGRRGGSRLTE

SMILES	target or system	test	system	setting	measurement	value
COc1cc2c(cc1NC(=O)c1cncn1C)C[C@H]1[C@H]3CCCC[C@@]23CCN1C			Caco-2	10 µM, pH 6.5	efflux ratio	7.19
CS(C)(=O)=Nc1ccc(-c2ccc(-c3nc4cc(O[C@@H]5CO[C@H]6[C@@H]5OC[C@H]6O)[nH]c4cc3F)cc2)cc1	Translocator protein (Tspo, Rattus norvegicus, UniProt P16257)	ligand displacement, radioligand		10 µM	inhibition	75%
NC[C@]1(CC(=O)O)CC[C@H]([18F])CC1		PET	rhesus monkey, brain	intravenous, 180 min, baseline scan	SUV	0.7
O=C1NC2(CC2)COc2ncc(F)cc2[C@H]2COCCN2c2ccn3ncc1c3n2			Sprague-Dawley rat, female, ovaries	oral, 10 mg/kg/day, 4 weeks, end of treatment	organ-to-brain weight ratio	6.19 ± 0.86%
Cc1sc2c(c1C)C(c1ccc(Cl)cc1)=N[C@@H](CC(=O)OC(C)(C)C)c1nnc(C)n1-2			CD1 mouse, male, plasma	intravenous, 5 mg/kg	half-life	53.8 min
CC(C)(C)C(=O)OCOP(=O)(OCOC(=O)C(C)(C)C)C1CCCN(O)C1=O (stereo not drawn)	CCRF-CEM				GI50	185 nM
CN(C)[C@H]1C[C@@]23CC[C@@]4(O2)C(=CC[C@]2(C)[C@@H](c5ccc6ccncc6c5)CC[C@H]24)C=C3[C@@H](O)[C@@H]1O	Tyrosine-protein kinase SYK (SYK, Homo sapiens, UniProt P43405)	ATP probe labelling, inhibitor, KiNativ profiling		1 µM	inhibition	-0.9%
O=C1CC[C@@]2(O)[C@H]3Cc4ccc(O)c5c4[C@@]2(CCN3CC2CCC2)[C@H]1O5					log tautomerization constant	0.55
O=C(c1cncc2cc[nH]c12)N1CCC(=C2c3ccccc3CS(=O)(=O)c3ccccc32)CC1			mouse	oral, 50 mg/kg	AUC(0-inf)	7640 ng·h/mL
CN1CC[C@]23c4c5ccc(O)c4O[C@H]2[C@H](O)C=C[C@H]3[C@H]1C5					log k amino protonation	9.03
COc1ccc(-n2cc(C(=O)N3C[C@]4(OC(=O)c5ccccc5NC(C)=O)CC[C@H](OC)[C@@]56[C@@H]4C[C@@H]([C@@H]35)[C@@]3(O)C[C@H](OC)[C@H]4C[C@@H]6[C@]3(O)[C@H]4OC)nn2)cc1			Sprague-Dawley rat, plasma	intravenous, 2 mg/kg, 15 min	concentration	40.2 ng/mL
CC[C@H](C)[C@H](NC(=O)[C@H](CO)NC(=O)[C@H](Cc1ccc(O)cc1)NC(=O)[C@H](Cc1ccc(O)cc1)NC(=O)[C@H](CC(N)=O)NC(=O)CNC(=O)[C@H](CO)NC(=O)[C@H](Cc1ccc(O)cc1)NC(=O)[C@H](CO)NC(=O)[C@H](CO)NC(=O)[C@H](CC(N)=O)NC(=O)COCCOCCNC(=O)CN1CCN(CC(=O)O)CCN(CC(=O)O)CCN(CC(=O)O)CC1)C(=O)N[C@@H](CC(C)C)C(N)=O [copper-64 labelled]		dynamic PET	tamoxifen-induced PDAC mouse model, metastases	0.1 min, CLDN4-expressing tumours	maximum metastasis uptake	0.81 %IA/cc
CC[C@H](C)[C@H](NC(=O)[C@H](CN)NC(=O)[C@H](CCCCN)NC(=O)[C@H](CC(C)C)NC(=O)[C@H](CC(C)C)NC(=O)CNC(C)=O)C(=O)N[C@@H](CCCCN)C(=O)N[C@H](C(=O)N[C@@H](CCN)C(=O)N[C@@H](CC(C)C)C(N)=O)[C@@H](C)O		circular dichroism	water	66 µM	helicity	0%
Oc1ccc2c3c1O[C@H]1[C@@H](O)CC[C@H]4[C@@H](C2)N(CC2CCC2)CC[C@@]341				phenolate site	log k protonation constant	9.37
[2H]c1nc([2H])c(-c2nc([2H])n3c2C([2H])([2H])N=C(c2ccccn2)c2cc(C#C)ccc2-3)o1			Sprague Dawley rat, plasma	oral, 2 mg/kg, cassette dosing	Tmax	~60 min
